Measurements collected from several papers.
Protocols differ between the studies behind these lines. ± marks the error that the study gave.
Sctr: Sctr (Rattus norvegicus, UniProt P23811)
UniProt P23811, sequence (whole entry, looked up): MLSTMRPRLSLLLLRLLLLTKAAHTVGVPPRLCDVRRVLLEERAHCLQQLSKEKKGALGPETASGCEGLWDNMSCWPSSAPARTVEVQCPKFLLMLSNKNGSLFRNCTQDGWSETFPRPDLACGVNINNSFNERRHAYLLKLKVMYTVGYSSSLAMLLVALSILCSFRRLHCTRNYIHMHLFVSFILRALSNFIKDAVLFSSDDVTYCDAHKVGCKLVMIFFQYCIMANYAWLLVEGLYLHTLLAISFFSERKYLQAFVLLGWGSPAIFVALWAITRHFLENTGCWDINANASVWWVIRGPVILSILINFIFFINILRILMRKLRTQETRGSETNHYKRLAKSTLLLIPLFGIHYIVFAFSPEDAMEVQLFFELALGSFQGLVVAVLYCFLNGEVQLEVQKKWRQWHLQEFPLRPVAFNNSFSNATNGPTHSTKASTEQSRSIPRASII
FFAR2: Free fatty acid receptor 2 (FFAR2, Homo sapiens, UniProt O15552)
UniProt O15552, sequence (whole entry, looked up): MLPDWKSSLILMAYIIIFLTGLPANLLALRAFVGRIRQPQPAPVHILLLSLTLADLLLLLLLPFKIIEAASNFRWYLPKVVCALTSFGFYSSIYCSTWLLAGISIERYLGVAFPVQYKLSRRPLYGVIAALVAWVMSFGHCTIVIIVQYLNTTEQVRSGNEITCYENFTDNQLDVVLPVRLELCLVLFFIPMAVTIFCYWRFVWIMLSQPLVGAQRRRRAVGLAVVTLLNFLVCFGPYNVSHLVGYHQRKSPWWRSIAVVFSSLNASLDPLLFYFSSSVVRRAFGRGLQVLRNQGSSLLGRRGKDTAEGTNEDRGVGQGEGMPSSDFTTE
UniProt Q13526, sequence (whole entry, looked up): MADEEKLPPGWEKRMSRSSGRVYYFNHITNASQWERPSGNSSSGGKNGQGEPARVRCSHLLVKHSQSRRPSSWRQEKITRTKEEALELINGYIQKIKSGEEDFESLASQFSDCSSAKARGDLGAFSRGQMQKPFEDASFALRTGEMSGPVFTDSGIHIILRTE
UniProt Q6DWJ6, sequence (whole entry, looked up): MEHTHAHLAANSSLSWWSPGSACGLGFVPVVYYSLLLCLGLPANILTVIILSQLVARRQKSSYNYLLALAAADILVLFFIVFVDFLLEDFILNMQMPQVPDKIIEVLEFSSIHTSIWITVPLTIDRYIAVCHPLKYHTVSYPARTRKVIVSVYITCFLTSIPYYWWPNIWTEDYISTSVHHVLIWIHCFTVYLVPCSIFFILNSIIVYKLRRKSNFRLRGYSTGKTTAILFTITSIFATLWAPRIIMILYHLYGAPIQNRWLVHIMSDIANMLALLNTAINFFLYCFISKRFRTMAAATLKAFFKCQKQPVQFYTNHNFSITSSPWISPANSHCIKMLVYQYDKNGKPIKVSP
UniProt P30550, sequence (whole entry, looked up): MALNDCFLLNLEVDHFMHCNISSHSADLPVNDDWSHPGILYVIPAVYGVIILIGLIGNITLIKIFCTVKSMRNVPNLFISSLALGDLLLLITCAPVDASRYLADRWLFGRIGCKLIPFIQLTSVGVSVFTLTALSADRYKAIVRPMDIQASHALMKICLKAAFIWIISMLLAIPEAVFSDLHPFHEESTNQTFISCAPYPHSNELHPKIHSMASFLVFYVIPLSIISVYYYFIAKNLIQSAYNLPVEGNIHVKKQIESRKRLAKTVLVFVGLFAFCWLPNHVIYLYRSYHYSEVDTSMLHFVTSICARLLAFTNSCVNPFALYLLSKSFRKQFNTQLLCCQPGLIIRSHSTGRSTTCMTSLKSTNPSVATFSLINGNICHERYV
UniProt Q8NER1, sequence (whole entry, looked up): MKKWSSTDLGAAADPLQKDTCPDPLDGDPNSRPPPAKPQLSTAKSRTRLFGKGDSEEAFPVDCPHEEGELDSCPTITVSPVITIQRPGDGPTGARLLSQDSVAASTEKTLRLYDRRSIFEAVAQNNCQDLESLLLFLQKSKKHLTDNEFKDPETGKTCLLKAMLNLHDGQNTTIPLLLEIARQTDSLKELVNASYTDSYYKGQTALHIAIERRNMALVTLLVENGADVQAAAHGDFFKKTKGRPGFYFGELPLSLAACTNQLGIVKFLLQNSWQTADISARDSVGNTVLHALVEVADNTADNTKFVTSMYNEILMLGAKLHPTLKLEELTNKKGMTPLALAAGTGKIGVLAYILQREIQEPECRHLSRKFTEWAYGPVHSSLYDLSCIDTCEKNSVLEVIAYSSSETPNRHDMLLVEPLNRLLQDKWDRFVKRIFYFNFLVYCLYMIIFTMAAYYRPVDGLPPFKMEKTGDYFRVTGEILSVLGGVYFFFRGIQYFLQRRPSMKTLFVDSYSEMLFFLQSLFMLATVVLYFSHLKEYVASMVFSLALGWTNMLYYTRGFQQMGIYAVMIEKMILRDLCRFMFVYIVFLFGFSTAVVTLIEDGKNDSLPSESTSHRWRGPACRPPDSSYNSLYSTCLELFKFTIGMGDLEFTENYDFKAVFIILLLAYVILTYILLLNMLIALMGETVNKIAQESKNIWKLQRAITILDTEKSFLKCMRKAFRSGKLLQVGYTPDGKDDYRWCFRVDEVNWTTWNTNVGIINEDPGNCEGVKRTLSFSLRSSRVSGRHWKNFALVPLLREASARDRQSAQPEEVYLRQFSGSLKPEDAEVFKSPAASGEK
UniProt Q60755, sequence (whole entry, looked up): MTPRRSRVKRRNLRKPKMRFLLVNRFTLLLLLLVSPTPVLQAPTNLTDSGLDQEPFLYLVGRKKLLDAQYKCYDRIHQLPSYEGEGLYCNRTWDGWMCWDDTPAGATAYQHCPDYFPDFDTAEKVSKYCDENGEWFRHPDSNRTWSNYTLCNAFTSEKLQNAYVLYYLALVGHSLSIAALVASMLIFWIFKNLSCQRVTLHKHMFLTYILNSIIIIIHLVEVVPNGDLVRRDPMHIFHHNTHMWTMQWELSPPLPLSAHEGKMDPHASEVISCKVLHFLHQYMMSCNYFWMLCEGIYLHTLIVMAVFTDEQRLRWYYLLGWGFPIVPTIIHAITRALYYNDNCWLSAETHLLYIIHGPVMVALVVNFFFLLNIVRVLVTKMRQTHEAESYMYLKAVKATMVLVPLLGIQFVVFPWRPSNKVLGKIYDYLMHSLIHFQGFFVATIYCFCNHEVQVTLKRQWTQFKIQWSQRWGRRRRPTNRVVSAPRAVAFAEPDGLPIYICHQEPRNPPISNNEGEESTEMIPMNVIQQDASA

With CC(C)C[C@H](NC(=O)CNC(=O)[C@H](CCC(N)=O)NC(=O)[C@H](CC(C)C)NC(=O)[C@H](CC(C)C)NC(=O)[C@H](CCCNC(=N)N)NC(=O)[C@H](C)NC(=O)[C@H](CC(C)C)NC(=O)[C@H](CCCNC(=N)N)NC(=O)[C@H](C)NC(=O)[C@H](CO)NC(=O)[C@H](CC(=O)O)NC(=O)[C@H](CCC(N)=O)NC(=O)[C@H](CC(C)C)NC(=O)[C@H](CCCNC(=N)N)NC(=O)[C@H](CO)NC(=O)[C@H](CC(C)C)NC(=O)[C@H](CCC(=O)O)NC(=O)[C@H](CO)NC(=O)[C@@H](NC(=O)[C@H](Cc1ccccc1)NC(=O)[C@@H](NC(=O)CNC(=O)[C@H](CC(=O)O)NC(=O)[C@H](CO)NC(=O)[C@@H](N)Cc1c[nH]cn1)[C@@H](C)O)[C@@H](C)O)C(=O)N[C@H](C(N)=O)C(C)C the EC50 was 0.2 ± 0.04 nM (Sctr; cAMP production, agonist; CHO-SecR; 30 min, 37 °C, with: 1 mM IBMX).
For CC(C)[C@H](C(=O)Nc1ncc(F)s1)c1ccc(Cl)cc1, the EC50 was 89 nM (FFAR2; cAMP, agonist, luciferase).
O=S1(=O)c2ccccc2-c2cccc(-n3cc[n+](Cc4ccccc4)c3)c21 has an EC50 of about 5000 nM (PIN1 (Homo sapiens, UniProt Q13526)).
With CC[C@H](C)[C@H](NC(=O)[C@H](CCC(N)=O)NC(=O)[C@H](Cc1c[nH]cn1)NC(=O)[C@H](C)NC(=O)[C@H](CC(C)C)NC(=O)[C@H](CCCCN)NC(=O)[C@H](CCC(N)=O)NC(=O)[C@@H](NC(=O)[C@@H](NC(=O)[C@@H]1CSSC[C@H](NC(=O)CNC(=O)[C@H](Cc2ccccc2)NC(=O)[C@H](CO)NC(=O)[C@H](CCCNC(=N)N)NC(=O)[C@H](CC(C)C)NC(=O)CNC(=O)[C@H](CCC(N)=O)NC(=O)[C@H](Cc2ccccc2)NC(=O)[C@H](CC(N)=O)NC(=O)[C@H](CC(N)=O)NC(=O)[C@H](CCSC)NC(=O)[C@H](CO)NC(=O)[C@H](CCC(N)=O)NC(=O)[C@H](CCCNC(=N)N)NC(=O)[C@@H](N)Cc2ccc(O)cc2)C(=O)N[C@@H](CCCNC(=N)N)C(=O)N[C@@H](Cc2ccccc2)C(=O)NCC(=O)N[C@@H]([C@@H](C)O)C(=O)N1)[C@@H](C)O)C(C)C)C(=O)N[C@@H](Cc1ccc(O)cc1)C(=O)N[C@@H](CCC(N)=O)C(=O)N[C@@H](Cc1ccccc1)C(=O)N[C@H](C(=O)N[C@@H](CC(=O)O)C(=O)N[C@@H](CCCCN)C(=O)N[C@@H](CC(=O)O)C(=O)N[C@@H](CCCCN)C(=O)N[C@@H](CC(=O)O)C(=O)N[C@@H](CC(N)=O)C(=O)N[C@H](C(=O)N[C@@H](C)C(=O)N1CCC[C@H]1C(=O)N[C@@H](CCCNC(=N)N)C(=O)N[C@@H](CO)C(=O)N[C@@H](CCCCN)C(=O)N[C@H](C(=O)N[C@@H](CO)C(=O)N1CCC[C@H]1C(=O)N[C@@H](CCC(N)=O)C(=O)NCC(=O)N[C@@H](Cc1ccc(O)cc1)C(N)=O)[C@@H](C)CC)C(C)C)[C@@H](C)O the EC50 was 191 nM (Calcitonin receptor (Calcr, Mus musculus, UniProt Q60755); cAMP production, agonist; COS-7 transfected with mouse CTR; 15 min, 37 °C, with: 1 mM IBMX).
CC(C)C[C@H](NC(=O)[C@H](CCCNC(=N)N)NC(=O)[C@H](C)NC(=O)[C@H](CO)NC(=O)[C@H](CC(=O)O)NC(=O)[C@H](CCC(N)=O)NC(=O)[C@H](CC(C)C)NC(=O)[C@H](CCCNC(=N)N)NC(=O)[C@H](CO)NC(=O)[C@H](CC(C)C)NC(=O)[C@H](CCC(=O)O)NC(=O)[C@H](CO)NC(=O)[C@@H](NC(=O)[C@H](Cc1ccccc1)NC(=O)[C@@H](NC(=O)CNC(=O)[C@H](CC(=O)O)NC(=O)[C@H](CO)NC(=O)[C@@H](N)Cc1c[nH]cn1)[C@@H](C)O)[C@@H](C)O)C(=O)N[C@@H](CCC(N)=O)C(=O)N[C@@H](CCCNC(=N)N)C(=O)N[C@@H](CC(C)C)C(=O)N[C@@H](CC(C)C)C(=O)N[C@@H](CCC(N)=O)C(=O)NCC(=O)N[C@@H](C)C(=O)N[C@H](C(N)=O)C(C)C gave an EC50 of 1.3 ± 0.2 nM (Sctr; cAMP production, agonist; CHO-SecR; 30 min, 37 °C, with: 1 mM IBMX).
With O=C(O)C1CCC1 the EC50 was 468000 nM (FFAR2; agonist).
For CSCC[C@H](NC(=O)[C@H](CC(C)C)NC(=O)[C@H](Cc1c[nH]cn1)NC(=O)[C@@H](C)NC(=O)[C@@H](NC(=O)[C@H](C)NC(=O)[C@H](Cc1c[nH]c2ccccc12)NC(=O)[C@H](CCC(N)=O)NC(=O)[C@H](CC(N)=O)NC(=O)CNC(=O)[C@H](CC(C)C)NC(=O)[C@H](CCCNC(=N)N)NC(=O)[C@H](CCC(N)=O)NC(=O)[C@@H]1CCC(=O)N1)C(C)C)C(N)=O, the EC50 was 1 ± 0.03 nM (GRPR (Homo sapiens, UniProt P30550); inositol phosphate formation, agonist; BALB/3T3 transfected with human GRPR; 45 min, 37 °C; relative to: 1 µM GRP).
The EC50 of COc1cc(CNC(=O)CCCC/C=C/C(C)C)ccc1NS(C)(=O)=O is reported as over 10000 nM (TRPV1 (Homo sapiens, UniProt Q8NER1); calcium signal, agonist).
The EC50 of CSCC[C@H](NC(=O)[C@H](CO)NC(=O)[C@H](Cc1ccc(O)cc1)NC(=O)[C@@H](N)CO)C(=O)N[C@@H](CCC(=O)O)C(=O)N[C@@H](Cc1cnc[nH]1)C(=O)N[C@@H](Cc1ccccc1)C(=O)N[C@@H](CCCNC(=N)N)C(=O)N[C@@H](Cc1c[nH]c2ccccc12)C(=O)NCC(=O)N[C@@H](CCCCN)C(=O)N1CCC[C@H]1C(=O)N[C@H](C(=O)NCC(=O)N[C@@H](CCCCN)C(=O)N[C@@H](CCCCN)C(=O)N[C@@H](CCCNC(=N)N)C(=O)N[C@@H](CCCNC(=N)N)C(=O)N1CCC[C@H]1C(=O)N[C@H](C(=O)N[C@@H](CCCCN)C(=O)N[C@H](C(=O)N[C@@H](Cc1ccc(O)cc1)C(=O)N1CCC[C@H]1C(=O)N[C@@H](CC(N)=O)C(=O)NCC(=O)N[C@@H](C)C(=O)N[C@@H](CCC(=O)O)C(=O)N[C@@H](CC(=O)O)C(=O)N[C@@H](CCC(=O)O)C(=O)N[C@@H](CO)C(=O)N[C@@H](C)C(=O)N[C@@H](CCC(=O)O)C(=O)N[C@@H](C)C(=O)N[C@@H](Cc1ccccc1)C(=O)N1CCC[C@H]1C(=O)N[C@@H](CC(C)C)C(=O)N[C@@H](CCC(=O)O)C(=O)N[C@@H](Cc1ccccc1)C(=O)O)C(C)C)C(C)C)C(C)C is reported as 2040 nM (GPR139 (Homo sapiens, UniProt Q6DWJ6); calcium mobilisation, agonist, Fluo-4; CHO transfected; from mean pEC50).

Excerpt of the above:
With O=C(O)C1CCC1 the EC50 was 468000 nM (FFAR2; agonist).
